Results of several laboratories.
Several values in a cell are separate wells, animals, samples, runs or records. ± gives the spread as reported.

Compound	cell line	test	setting	scale	endpoint	value
CN(C)c1ccc(-n2cc(COC(=O)[C@@]3(C)C=C(C(=O)OC(C)(C)C)C(=O)CC3)nn2)cc1	HeLa	quantitative western blot	concentration not given, 15 (unit not given), added: EGF	–	pERK/ERK ratio	0.226
CCN(CC)CC(=O)Nc1cccc(-n2cc(-c3ccc4ccc(-c5cn(-c6cccc(NC(=O)CN(CC)CC)c6)nn5)cc4c3)nn2)c1	RCC4	PCR angiogenesis array, measured: MMP9	5 x IC50, 4 h, normoxia	reference: untreated	fold regulation	-1.32
C=CC(=O)N1[C@@H](c2ccc3c(c2)OCO3)c2[nH]c3ccccc3c2C[C@H]1C(=O)NC1CC1	rat DRG neurons	–	0.004572 µM, 48 h, added: vincristine 40 nM	–	mean neuron degeneration	87.8%
O=C(C[Se]C(=O)C12CC3CC(CC(C3)C1)C2)Nc1cccc(C(F)(F)F)c1	NCI60 breast subpanel mean	cell growth	–	–	TGI	17.3 µM
CC(C)c1ccc(N(C)c2ccc3c(c2)OCC[C@H]3CNc2cnccc2C(=O)O)cc1	MeWo	cell viability, CellTiter-Glo	7 days	–	IC50	≥ 10000 nM
CO[C@@H]1[C@@H](OC(N)=O)[C@@H](O)[C@H](Oc2ccc3c(O)c(NC(=O)c4ccc(O)c(CC=C(C)C)c4)c(=O)oc3c2C)OC1(C)C	DLD-1 BRCA2-/-	–	150 µM, mean of replicates A, B	reference: untreated	colony survival	0.326%
O=C(N1CCCC1)n1cc(-c2ccc(-c3ccccc3)cc2)nn1	mouse T-cells	N-terminal labelling enrichment, measured: Tfg N-terminal peptides	1 nM, 6 h, single tryptic peptide	reference: DMSO	SILAC ratio	1.13 and 1.27 and 1.1
CN1CCCNC(=O)c2cccc(c2)C(=O)NCCCN(C)CCCNc2cccc3c2C(=O)c2cccc(c2C3=O)NCCC1	SAS	RNA-Seq, measured: GVQW2 mRNA	1 µM, 6 h	reference: untreated cells	log2 fold change	2.09
CC1(C)C[C@@H](Nc2cccc(-c3sc(C(=O)O)c(OCC(=O)O)c3Cl)c2)CCN1S(=O)(=O)Cc1cccc(NC(=O)CN2CCC(c3ccc4c(c3)oc(=O)n4C3CCC(=O)NC3=O)CC2)c1 (stereo partly shown)	B16-F10	HTRF, measured: phospho-STAT1 Tyr701	1.1 µM, added: IFN-γ	reference: DMSO	fold change	5.08 and 5.21 and 5.06 and 5.18 and 5.25
CNS(=O)(=O)Nc1nccc(Cc2c(C)c3ccc(Oc4ncccc4F)cc3oc2=O)c1F	A-431	cell viability	7 days	–	IC50	408 nM
Cc1cc(NC2CCN(C)CC2)ccc1-c1cc2c(N3CCC[C@H](C(=O)N[C@H](C)c4ccccc4)C3)ncnc2[nH]1	NCI-H3122	cell growth or viability, MTT	5 µg/mL, 72 h	–	inhibition	89%
Cc1cccc(-c2cccc(C)n2)n1.Cc1cccc(-c2cccc(C)n2)n1.F[P-](F)(F)(F)(F)F.F[P-](F)(F)(F)(F)F.[Ru+2].c1ccc(-c2nc3c4cccnc4c4ncccc4c3[nH]2)cc1	SK-MEL-28	–	1% O2, added: green light 523 nm, 100 J/cm2	reference: dark over light EC50	phototoxicity index	2
COc1ccccc1-c1ccncc1C(=O)Nc1nnc(OCc2ccc(Cl)cc2)s1	DLD-1 BRCA2-/-	–	4 µM, single replicate	–	colony count	8 and 17 and 19 and 11 and 5 and 6
CCNc1cc2c(cc1C)C1(c3cc(C)c(NCC)cc3O2)c2ccccc2C(=O)N1N=Cc1c[c-]c(-c2ccccn2)cc1.Cc1c(C)c(-c2ccc(-c3ccccc3)cc2)[c-](C)c1C.[Cl-].[Ir+3]	A549	annexin V/PI flow cytometry	2.0×IC50, 24 h	–	late apoptotic cells	88.75 ± 0.12%
COc1ccc(NC(=O)c2ccc3[nH]c(-c4ccc(N(C)C)cc4)nc3c2)cn1	HUVEC primary	Caspase-Glo luminescence	8 µM, 16 h, unit not given	reference: DMSO	caspase-3/7 activity	0.699
CC(=O)Oc1ccccc1C(=O)[Se]CC(=O)Nc1cccc(C(F)(F)F)c1	NCI60 prostate subpanel (PC-3, DU-145)	total growth inhibition, inhibitor	five-dose	–	mean TGI	13.3 µM

Compound	cell line	test	setting	scale	endpoint	value
Cn1ncc2cc(-c3cncc(Cl)c3N3CCC4(CCNC4=O)CC3)ccc21	LS174T	gene expression, microarray, measured: SLC39A8 mRNA	concentration not given, 4 h	reference: untreated cells	log2 fold change	-2.07
Cc1cc(Cl)cc(-c2ccnc3cc(CN4C(=O)C5C(C4=O)C5(C)C)sc23)c1C[C@@H]1CNCCO1 (stereo partly shown)	CHP-212 resistant subline R3	annexin V/PI flow cytometry	0.3 µM, 48 h	–	apoptotic cells	11.5% and 10.2% and 13.8%
Cc1cccc(-c2cccc(C)n2)n1.Cc1cccc(-c2cccc(C)n2)n1.F[P-](F)(F)(F)(F)F.F[P-](F)(F)(F)(F)F.[Ru+2].c1ccc2c(-c3nc4c5cccnc5c5ncccc5c4[nH]3)c3ccccc3cc2c1	SK-MEL-28	cell viability	normoxia, added: blue light 453 nm, 100 J/cm2	–	EC50	662 ± 7 nM
Cc1cc(NC2CCN(C)CC2)ccc1-c1cc2c(N3CCC[C@H](C(=O)NCc4ccc(OC(F)(F)F)cc4)C3)ncnc2[nH]1	NCI-H3122	cell growth or viability, MTT	0.04 µg/mL, 72 h	–	inhibition	47.4%
C[C@@H](Nc1c(-c2c(F)cc(C#N)cc2F)c(Cl)nc2ncnn12)C(C)(C)C	mouse primary cortical neurons	microtubule stabilization, measured: acetylated α-tubulin	8 h, added: okadaic acid	–	minimum effective concentration	0.3 µM
Cc1ncsc1-c1ccc(C(C)NC(=O)C2CC(O)CN2C(=O)C(NC(=O)CCCCCCCCCCN2CCCC(Nc3ncc(Cl)c(Nc4ccccc4S(=O)(=O)C(C)C)n3)C2)C(C)(C)C)cc1 (stereo not shown)	22Rv1	RNA-seq, measured: RAB11FIP4 mRNA	concentration not given	reference: DMSO	log2 fold change	-1.21
CC[C@H](C)[C@H](NC(=O)[C@H](Cc1ccccc1)NC(=O)[C@H](CCC(=O)O)NC(=O)[C@H](CCCCN)NC(=O)[C@H](C)NC(=O)[C@H](C)NC(=O)[C@H](CCC(N)=O)NC(=O)CNC(=O)[C@H](CCC(=O)O)NC(=O)[C@H](CC(C)C)NC(=O)[C@H](Cc1ccc(O)cc1)NC(=O)[C@H](CO)NC(=O)[C@H](CO)NC(=O)[C@@H](NC(=O)[C@H](CC(=O)O)NC(=O)[C@H](CO)NC(=O)[C@@H](NC(=O)[C@H](Cc1ccccc1)NC(=O)[C@@H](NC(=O)CNC(=O)[C@H](CCC(=O)O)NC(=O)[C@H](C)NC(=O)[C@@H](N)Cc1c[nH]cn1)[C@@H](C)O)[C@@H](C)O)C(C)C)C(=O)N[C@@H](C)C(=O)N[C@@H](Cc1c[nH]c2ccccc12)C(=O)N[C@@H](CC(C)C)C(=O)N[C@H](C(=O)N[C@@H](CCCCN)C(=O)NCC(=O)N[C@@H](CCCNC(=N)N)C(N)=O)C(C)C	GIPR and β2AR, mTurquoise, SYFP2, HeLa	TIRF microscopy	1 µM	–	GIPR-β2AR subcellular localisation	no effect
COC(=O)c1cc(NC2=NC(=O)C(=Cc3ccc(C)cc3)S2)ccc1OC(C)=O	MCF7	GC-MS, measured: Stearic acid	1 µM	reference: DMSO	metabolite level	1.13 fold change
O=C1C(Cl)=C(Cl)C(=O)c2c(O)ccc(O)c21	HuCC-A1	MTT	–	reference: IC50 MRC-5 over IC50 HuCC-A1	selectivity index	1.1
CNc1ncnc2c1ncn2C1OC(CO)C(O)C1O (stereo not shown)	mock-transfected cells	TGFα shedding, agonist	10 nM	reference: unstimulated vehicle control	AP-TGFα release	-0.25% and 0.5% and 0.27%
O=C(Nc1nnc2c1c(-c1ccc(Cl)cc1)nc1sc(=Cc3ccco3)c(=O)n12)c1ccccc1 (mixture of isomers)	NCI60 cell panel	SRB	10 µM	–	mean growth percent	47.9%
O=C(C[Se]C(=O)c1cc2ccccc2o1)Nc1cccc(C(F)(F)F)c1	NCI60 breast subpanel mean	cell growth	–	–	TGI	4.13 µM
CN(C)CCN1CCN(c2ccc3nc(-c4ccc5nc(-c6ccc(C(F)(F)F)cc6)[nH]c5c4)[nH]c3c2)CC1	SNB-19	SRB	10 µM, 48 h	–	growth percent	69.6%
CC(C)Cc1ccc(C(C)C(=O)[Se]CC(=O)Nc2cccc(C(F)(F)F)c2)cc1 (stereo not shown)	NCI60 breast subpanel mean	cell growth	–	–	TGI	4.33 µM
CCN(C(=O)c1cc(F)ccc1Oc1nncnc1N1CCC2(C1)CN([C@H](CCCN(C)CCOC)C(C)C)C2)C(C)C	Hs-578T	cell growth or viability	72 h	–	GI50	> 10 µM

Excerpt of the above:
Compound	cell line	test	setting	scale	endpoint	value
CC[C@H](C)[C@H](NC(=O)[C@H](Cc1ccccc1)NC(=O)[C@H](CCC(=O)O)NC(=O)[C@H](CCCCN)NC(=O)[C@H](C)NC(=O)[C@H](C)NC(=O)[C@H](CCC(N)=O)NC(=O)CNC(=O)[C@H](CCC(=O)O)NC(=O)[C@H](CC(C)C)NC(=O)[C@H](Cc1ccc(O)cc1)NC(=O)[C@H](CO)NC(=O)[C@H](CO)NC(=O)[C@@H](NC(=O)[C@H](CC(=O)O)NC(=O)[C@H](CO)NC(=O)[C@@H](NC(=O)[C@H](Cc1ccccc1)NC(=O)[C@@H](NC(=O)CNC(=O)[C@H](CCC(=O)O)NC(=O)[C@H](C)NC(=O)[C@@H](N)Cc1c[nH]cn1)[C@@H](C)O)[C@@H](C)O)C(C)C)C(=O)N[C@@H](C)C(=O)N[C@@H](Cc1c[nH]c2ccccc12)C(=O)N[C@@H](CC(C)C)C(=O)N[C@H](C(=O)N[C@@H](CCCCN)C(=O)NCC(=O)N[C@@H](CCCNC(=N)N)C(N)=O)C(C)C	GIPR and β2AR, mTurquoise, SYFP2, HeLa	TIRF microscopy	1 µM	–	GIPR-β2AR subcellular localisation	no effect
Cc1cccc(-c2cccc(C)n2)n1.Cc1cccc(-c2cccc(C)n2)n1.F[P-](F)(F)(F)(F)F.F[P-](F)(F)(F)(F)F.[Ru+2].c1ccc2c(-c3nc4c5cccnc5c5ncccc5c4[nH]3)c3ccccc3cc2c1	SK-MEL-28	cell viability	normoxia, added: blue light 453 nm, 100 J/cm2	–	EC50	662 ± 7 nM
O=C1C(Cl)=C(Cl)C(=O)c2c(O)ccc(O)c21	HuCC-A1	MTT	–	reference: IC50 MRC-5 over IC50 HuCC-A1	selectivity index	1.1
